Assay results of several laboratories.
Parts stem from different laboratories: compare values within a part only. Substitutions count along the parent as printed.

Series 1
Target: Interferon regulatory factor 7, full length, phosphomimetic (IRF7, Homo sapiens, UniProt Q92985, residues 1-503, S101K/S471D/S472D/S475D/S476D/S477D/S483D/S484D/S487D)
Chain of UniProt Q92985 (whole entry, unmodified, looked up): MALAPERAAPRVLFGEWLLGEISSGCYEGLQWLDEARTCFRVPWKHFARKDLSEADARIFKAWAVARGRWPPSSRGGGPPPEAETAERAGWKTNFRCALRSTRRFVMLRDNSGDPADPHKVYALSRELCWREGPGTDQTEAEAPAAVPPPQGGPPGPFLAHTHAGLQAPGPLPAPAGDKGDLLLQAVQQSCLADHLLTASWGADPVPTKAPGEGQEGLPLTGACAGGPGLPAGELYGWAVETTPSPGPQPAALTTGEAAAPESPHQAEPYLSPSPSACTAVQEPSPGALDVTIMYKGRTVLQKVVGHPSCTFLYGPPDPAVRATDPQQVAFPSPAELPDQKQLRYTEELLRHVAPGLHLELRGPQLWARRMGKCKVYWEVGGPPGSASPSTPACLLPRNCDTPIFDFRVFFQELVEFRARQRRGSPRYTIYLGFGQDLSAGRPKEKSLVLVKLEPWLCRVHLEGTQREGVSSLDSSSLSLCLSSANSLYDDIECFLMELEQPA
Technique: protein-binding microarray
Form: double-stranded DNA, one strand shown
Matrix: in vitro
Tested at: 250 nM
Notes: 60-bp whole probe
With: salmon DNA 0.4 mg/ml
Relative to: random background probes
Reading: higher = stronger binding
Shared flanks, not repeated: GCCTAGCAC … GTCTTGATTCGCTTGACGCTGCTG
Oligonucleotide | log fluorescence
GACAGTCTCCTACTGCTGACGTGCTAG | -0.261 z-score
TCACCATTTTTTTTCACACTGTGCTAG | 0.664 z-score
TTAGATATCGGACTGGATTAGTGCTAG | 0.18 z-score
TGCATTTTTTTTTTCTACTTGTGCTAG | 0.962 z-score
TTTTCATTTTTTTTCATCATGTGCTAG | 2.29 z-score
CATCTTCTGGATTTTTTAGCGTGCTAG | 0.25 z-score
GTAGTAATGAATATAATACCGTGCTAG | -0.284 z-score
CCCACTTTCACTTCTCCCTTGTGCTAG | 2.92 z-score
GACGGTATCGGGACTGGGGATGTGCTA | -0.321 z-score
TTAGATCTCAGTTTCTATTAGTGCTAG | 3.13 z-score
CTTGTGCTCCTTTTAATTTTGTGCTAG | 0.144 z-score
GACGATTTCAGTTCCGCGACGTGCTAG | 0.77 z-score
TTCACTCTCTGCTTGTATCTGTGCTAG | 0.423 z-score
TTAGGCCTCGGTATCGGTTAGTGCTAG | 1.92 z-score
TCAGTTTGCCTCCTTCAGACTGTGCTA | 0.321 z-score
TTAGGTTTCTTACTGCTTTAGTGCTAG | 0.747 z-score
TTTGGTTTCCTTCTCCTTTAGTGCTAG | 3.23 z-score
TTAGATCTCAGACTGGTTTAGTGCTAG | 0.051 z-score
TTAGATTTCCGTATCGATTAGTGCTAG | 1.36 z-score
TACGGACTGGACTTTCGGGACGTGCTA | -0.453 z-score
ATAACTTTTTTTTTTCCCTGGTGCTAG | 0.536 z-score
GACGGTATCCGACTGGGGACGTGCTAG | -0.166 z-score
GCCGGTCTCGGTTTCGGGACGTGCTAG | 8.26 z-score
TTAGATTTCTGTTTCGATTAGTGCTAG | 5.54 z-score
GACGAACTGGGGTTTTGAGACGTGCTA | -0.636 z-score

Series 2
Target: ATF3, bZIP domain (human)
Technique: DHFR protein complementation
Matrix: yeast
Notes: single substitutions, most at no-binding floor
Relative to: wild-type JUN-FOS pair
Reading: higher = stronger binding
Parent: JUN, bZIP domain (human); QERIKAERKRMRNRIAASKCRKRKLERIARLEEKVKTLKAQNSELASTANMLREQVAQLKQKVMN; partner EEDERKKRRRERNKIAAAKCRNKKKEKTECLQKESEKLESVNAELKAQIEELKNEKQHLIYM
Substitution | binding fitness [natural log]
A46H | -0.206
T48S | -0.303
M51E | -0.0646
R53G | -0.45
T37G | -0.125
N42H | -0.146
K36T | -0.243
L45G | -1.15
A46W | -0.222
V35E | -1.39
L52S | -1.41
A57L | -0.317
L38N | -1.42
L31W | -0.305
A49M | -0.155
E54S | -0.224
R53N | -0.424

Series 3
Target: Histone acetyltransferase KAT6A, both winged helices, GST fusion (KAT6A, Homo sapiens, UniProt Q92794, residues 1-181)
Technique: protein binding microarray
Form: double-stranded DNA, one strand shown
Matrix: in vitro
Tested at: not given
Notes: 8-mer, flanks averaged, mean of 2 arrays, mostly near background
Relative to: not given
Reading: higher = stronger binding
Construct (chain): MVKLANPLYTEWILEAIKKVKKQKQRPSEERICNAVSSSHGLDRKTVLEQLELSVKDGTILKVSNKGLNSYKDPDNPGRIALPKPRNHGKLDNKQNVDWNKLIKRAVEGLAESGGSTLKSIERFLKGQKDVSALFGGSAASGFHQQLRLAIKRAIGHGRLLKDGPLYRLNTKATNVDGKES
Oligonucleotide | E-score
AGGACTTG | -0.195
AATGACGT | -0.0387
CGGACTAG | 0.128
AGACTGTG | -0.211
GGTGTCCA | -0.164
GCCATCTA | -0.0132
ACTATGTG | -0.0804
ATCATAAC | -0.00664
CTGGCATA | -0.106
ATTATATG | -0.166
AGGGGGGA | -0.321
GTCCCGTA | 0.252
AGACGCGG | 0.269
AATCACAA | -0.0111
CGAAAACA | 0.0486
AGGCAGTG | -0.0415
CTCTTCAC | -0.239
TGGGGAAA | -0.213
CGGGCGAA | 0.225
ATTTGCGC | 0.181
CTGCCTCA | -0.195
CTTGGCAA | -0.144
CATGGCAG | -0.0508
ACAACGGG | 0.0248
GATAGTTA | 0.0132

Series 4
Target: ABI1, truncated, D143A, DHFR fusion (Arabidopsis thaliana)
Technique: DHFR PCA, deep sequencing
Matrix: yeast
Notes: methotrexate growth selection, single substitutions
With: (+)-ABA 58 µM
Relative to: wild-type fitted maximum
Reading: higher = stronger binding
Parent: PYL1, truncated, DHFR fusion (Arabidopsis thaliana); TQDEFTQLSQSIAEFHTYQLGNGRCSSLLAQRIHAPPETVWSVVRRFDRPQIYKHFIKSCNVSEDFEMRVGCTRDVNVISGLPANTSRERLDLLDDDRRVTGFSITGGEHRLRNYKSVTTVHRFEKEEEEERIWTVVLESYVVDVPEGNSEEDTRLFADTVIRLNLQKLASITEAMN; partner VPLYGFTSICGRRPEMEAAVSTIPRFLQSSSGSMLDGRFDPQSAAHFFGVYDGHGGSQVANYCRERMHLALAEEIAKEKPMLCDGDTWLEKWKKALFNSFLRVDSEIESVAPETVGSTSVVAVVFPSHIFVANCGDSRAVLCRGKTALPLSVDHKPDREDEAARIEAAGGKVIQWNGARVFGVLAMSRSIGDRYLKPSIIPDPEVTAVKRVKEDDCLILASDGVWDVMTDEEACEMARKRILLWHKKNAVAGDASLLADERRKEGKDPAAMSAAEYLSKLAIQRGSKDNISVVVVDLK
Substitution | relative binding score [%]
E174N | 57.4
A170V | 41
R163T | 74.5
A158C | 93.2
V70R | 61.2
T6V | 92.5
S9G | 90.2
E89Y | -12.2
G107T | 37.9
S171D | 86.9
Q167A | 84.5
I57W | 3.69
V78L | 89.3
A84K | 5.54

Series 5
Target: RING finger protein unkempt homolog, zinc fingers 1-6, GST-SBP tag (UNK, Homo sapiens, UniProt Q9C0B0, residues 30-357)
Chain of UniProt Q9C0B0 (30-357, looked up): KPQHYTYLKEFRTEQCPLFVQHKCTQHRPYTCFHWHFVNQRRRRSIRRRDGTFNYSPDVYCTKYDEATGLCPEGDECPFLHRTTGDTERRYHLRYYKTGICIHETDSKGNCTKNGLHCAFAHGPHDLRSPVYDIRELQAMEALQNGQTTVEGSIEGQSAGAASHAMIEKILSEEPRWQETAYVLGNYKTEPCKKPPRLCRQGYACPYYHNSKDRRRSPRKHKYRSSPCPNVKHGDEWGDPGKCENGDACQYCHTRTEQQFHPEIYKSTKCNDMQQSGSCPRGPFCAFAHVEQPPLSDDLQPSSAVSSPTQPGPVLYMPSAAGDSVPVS
Technique: RNA Bind-n-Seq
Form: RNA
Matrix: in vitro
Tested at: not given
Notes: RNA with constant flanks, human and mouse sites, ends assumed
Relative to: input RNA pool
Reading: higher = stronger binding
Oligonucleotide | bound/input enrichment
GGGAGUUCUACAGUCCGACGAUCGGGGGAUUCUACAUCCAGGCAUCAAAGAACACUGUCUUACAUGGCUGCUAUUGAAGUAUAUGACCUUGUCUGAAAGCUGCAGUACCUAACAUCUCUGUUGUGUGCAUUCUACAUAUGCAUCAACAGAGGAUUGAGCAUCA | 0.22 ratio
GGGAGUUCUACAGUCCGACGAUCAUGAUAUAAAACAUUUUGUGUUUCAUCUACCCAUUCAGCAAGAAUGAGUCCAGUCCCAUGUUUAGAUUAUUUUAACAUAAUUUGUGAAUGAUAGUUUCACAUUUGGCUGAUGGUUUGCAGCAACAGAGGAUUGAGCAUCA | 2.97 ratio
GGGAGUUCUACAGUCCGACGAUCAACGUGGAGUUGAGUUCCUUGGCCCGGCUUCCCAGCUUGAAUAAACUCCGGAAGUUGGAACUUAGUGACAAUAUAAUUUCUGGAGGCUUGGAAGUCCUGGCAGAGAAAUGUCCAAAUCUUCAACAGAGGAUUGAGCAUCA | 0.325 ratio
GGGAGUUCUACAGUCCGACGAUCAUUAGUGUUAUUUAUGGCUAGAAAAGCAUGCUUCUAUUUAAGCUGUAAAAAGGAUUGUCGAAUAGUUACUGUAAAUAUAUGUUGACAUAGUAAAGCUUGGAAUGUCUUAUGUCCCUGGUGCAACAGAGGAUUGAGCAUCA | 2.9 ratio
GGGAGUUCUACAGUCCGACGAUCUGUUUAGAAGGAAUGAUUCUUGCAGCAAAAUCAGUUGAUGAAAGAAGAGAUUCUCAAAUGGUAGUAGACUCCUUCAAGUCUGGCUUUGAACCUCCAGGAGACUUUCCAUUUGAAGAUUACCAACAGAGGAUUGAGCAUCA | 0.219 ratio
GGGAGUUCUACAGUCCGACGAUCAAGGGAACUUCAAGACCCCAGAUAUUGACCUUGCAAAGGAUGUUUUUGCAGCCCUGGGCUCUCCUGCUCCCGCCACUGGGGCCAGUGGACAAGCCUCUGAGCUUGCUCCUUCCACUGCAGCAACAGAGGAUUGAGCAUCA | 0.123 ratio
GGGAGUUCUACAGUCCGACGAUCGGAGAGUAUAUGAGAGGCACAGGGUGUUUUUGCUGACACAACAGUGAAAGAGAAACAAGAACUUCCCUCGCUCAGUUACCAAGGCUCAGCAACCUGAGCAUGGAGCGGGUGUGAAGGGCCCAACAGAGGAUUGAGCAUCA | 0.172 ratio
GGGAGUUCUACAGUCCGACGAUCAACAACAAAAAACCCCAAGGAACCUAAUAACCUUUUUGAAAAACAAAAUAAUGAGAAUUUUUAGUGAUAUAUUUCUUAUUUGACAGAAUAAGGUGUCUGGAGGGGGUCCUGUACUCAUCCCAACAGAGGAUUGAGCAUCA | 0.697 ratio
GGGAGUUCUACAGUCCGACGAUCUUGCCCAUUUUUAAGCAAGAAGAGUCGAGUUUGCCUCCUGAUAAUGAGAAUAAAAUCCUGCCUUUUCAAUAUGUGCUUUGUGCUGCUACCUCUCCAGCAGUGAAACUCCAUGAUGAAACCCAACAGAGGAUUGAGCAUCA | 0.192 ratio
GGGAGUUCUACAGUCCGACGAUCGAUACUCAGGGUAAAAAGAAAUGGAAAAAAACAUGUUGUCUCCCAUCUUUUGUCAUCUUCCUUUUUAUCAUUGGCUGCAUUAUAUCUGGAAUUACUCUUCUGGCUAUAUUUAGAGUUGACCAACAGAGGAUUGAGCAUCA | 0.352 ratio
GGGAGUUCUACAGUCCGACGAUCAAAACAGAAAAUGGUGCUGGAGACCAGUAGUUUAGUAAACCAAUUUUUUAUUCAUUUUAAAUAGGUUUUAAACGACUUUUGUUUGCGGGGCUUUUAAAAGGAAAACCGAAUUAGGUCCACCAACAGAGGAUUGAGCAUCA | 2.53 ratio

Series 6
Target: CCNB1, cyclin fold, Cln2 fusion (human)
Technique: yeast growth competition, sequencing
Matrix: yeast
Notes: strong parent motif
Relative to: not given
Reading: higher = stronger binding
Parent: CUX1 docking peptide (human); SRIRRELFIEEIQ
Substitution | normalised enrichment score
SRIRRELFIAEIQ [E10A] | 0.89
SAIRRELFIEEIQ [R2A] | 1.4
ARIRRELFIEEIQ [S1A] | 1.61
SRIRRALFIEEIQ [E6A] | 1.66
SRIRAELFIEEIQ [R5A] | 0.379
SRARRELFIEEIQ [I3A] | 0.346
SRIRKELFIEEIQ [R5K] | 1.11

Series 7
Target: PABPC1L2, full length, GST fusion (mouse, UniProt A0ABA7IW68)
Technique: RNAcompete
Form: RNA
Matrix: in vitro
Tested at: 20 nM
Notes: 7-mer, probes averaged, single round
Relative to: mean of 7-mers
Reading: higher = stronger binding
Target sequence (chain): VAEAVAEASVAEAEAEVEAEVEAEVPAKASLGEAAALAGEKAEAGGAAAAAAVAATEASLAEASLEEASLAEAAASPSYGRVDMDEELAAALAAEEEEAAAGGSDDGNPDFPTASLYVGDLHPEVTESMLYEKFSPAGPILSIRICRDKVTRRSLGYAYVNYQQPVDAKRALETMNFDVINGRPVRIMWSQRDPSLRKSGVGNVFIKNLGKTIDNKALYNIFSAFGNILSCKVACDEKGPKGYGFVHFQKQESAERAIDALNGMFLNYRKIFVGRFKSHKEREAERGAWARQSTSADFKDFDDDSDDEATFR
Oligonucleotide | 7-mer Z-score
AGGGCAU | 0.407
UGUCCAG | -0.316
GUUAUCA | -0.224
UUCGUUC | -0.46
UGCUCUC | -0.443
CCUUAAA | 0.773
GUACUUA | -0.103
CAUCACC | -0.144
GCCUCCG | -0.306
UGAAUAC | -0.0863
GACUUAG | -0.164
CGAAAGA | 0.369
UAACUUC | -0.306

Other studies, line by line
Substance | target | assay | system | conditions | scale | measurement | value
PhoQ, residues 284 288 289 292 302 303 NLGVHL | PhoP, residues 12 14 15 18 19 LHHVQ (Escherichia coli, UniProt P23836) | Sort-seq, measured: YFP reporter | E. coli | PhoQ-PhoP variant library, with: 10 µM Mg2+ | relative to: high Mg2+ state, higher = stronger signaling | fold induction | 0.439

For quick reference, copied from above (series 4):
Substitution | relative binding score [%]
T6V | 92.5
S9G | 90.2
E89Y | -12.2
G107T | 37.9
S171D | 86.9
Q167A | 84.5
I57W | 3.69
V78L | 89.3
